# Assay results collected from several papers.
# Compare with care: the assays were run in different laboratories. Values joined by “and” are separate records of one study, mostly repeats; a detail may differ. ± gives the spread as reported.
# CASP7: Caspase-7 (CASP7, Homo sapiens, UniProt P55210)
# Gria2: Glutamate receptor 2 (Gria2, Rattus norvegicus, UniProt P19491)
# T1: riboswitch RNA, fused to Pepper aptamer; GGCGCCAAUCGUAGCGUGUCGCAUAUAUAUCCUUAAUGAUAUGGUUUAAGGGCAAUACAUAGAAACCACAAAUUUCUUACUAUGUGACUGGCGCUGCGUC
# T2: riboswitch RNA yjdF aptamer domain (Bacillus subtilis); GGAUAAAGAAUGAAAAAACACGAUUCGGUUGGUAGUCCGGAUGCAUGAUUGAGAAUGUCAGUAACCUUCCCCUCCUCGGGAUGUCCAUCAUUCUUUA
SMILES,tested on,test,system,setting,how to read,endpoint,result
CC(=O)N[C@@H](C(=O)N[C@@H](CCCC(=O)O)C(=O)N[C@@H](CCC1CCCCC1)C(=O)N[C@@H](CC(=O)O)C(=O)COC(=O)c1c(C)cccc1C)C1CCCCC1,CASP7,"enzyme activity, inhibitor",,,,kinact/KI,6200 M⁻¹ s⁻¹
CC1CCN(c2ccc(-c3n[nH]c(=O)c4cccnc34)cc2)CC1,human kinase panel,"binding, KINOMEscan",,"10000 nM, %Ctrl below 10",,number of kinases hit,1
CCCCCC(O)/C=C/C=O (stereo not drawn),"5'-nucleotidase domain-containing protein 1 (NT5DC1, Homo sapiens, UniProt Q5TFE4)","competitive isoTOP-ABPP, refers to: NT5DC1 cysteine peptide",Ramos soluble proteome,"100 µM, with: iodoacetamide probe","baseline: DMSO over compound-treated, higher = stronger cysteine blockade",isoTOP-ABPP competition ratio,4.5
C=CC(=O)N1CCCC(n2c(=O)c3ncccc3n(Cc3ccc(Oc4ccccc4)cc3)c2=O)C1 (stereo not drawn),"Small nuclear ribonucleoprotein Sm D2 (Homo sapiens, UniProt P62316)","thermal proteome profiling, refers to: SNRPD2",,unit not given,baseline: vehicle,melting temperature shift,-3.01
COC(=O)Cc1cc2c(cc1C(=O)c1ccccc1Br)OCO2,Gria2,"glutamate-evoked current, whole-cell patch clamp",HEK-293T,"concentration not given, glutamate alone after washout, with: glutamate",,current amplitude after recovery,1320 ± 76 pA
Cc1ccc(C)c(-c2cc(NC(=O)c3cncc(Br)c3)[nH]n2)c1,human kinase panel,"binding, KINOMEscan",,"10000 nM, %Ctrl below 10",,number of kinases hit,0
CC(=O)N[C@@H](CC(C)C)C(=O)N[C@@H](Cc1ccccc1)C(=O)N[C@@H](CO)C(=O)N[C@@H](CC(=O)O)C(=O)COC(=O)c1c(C)cccc1C,CASP7,"enzyme activity, inhibitor",,,,kinact/KI,900 M⁻¹ s⁻¹
C[C@@H]1CN(c2cc(=O)n(C)c3ccc(C#N)nc23)[C@@H](C)CN1Cc1ccc(S(=O)(=O)n2cnc(C3CC3)n2)cc1,"DGKA (Homo sapiens, UniProt P23743)",DIA global proteomics,Jurkat,"5 µM, 6 h",baseline: DMSO,protein abundance ratio,0.19
Cc1ccc(NC(=O)NC(C)(C)c2cccc(NC3=CC(=O)N(C4CCC(=O)NC4=O)C3=O)c2)cc1Cl (stereo not drawn),"Cereblon/Ikaros (Homo sapiens, UniProt Q13422+Q96SW2)","degrader, quantitative proteomics, refers to: protein abundance",human regulatory T cells,"1 µM, 4 h",baseline: DMSO,log2 fold change,-0.388
CCn1cc(-c2cccc(C(F)(F)F)c2)c2sc(C(=N)NC3CCS(=O)(=O)CC3)cc2c1=O,"KAT2B (Homo sapiens, UniProt Q92831)",,,,,ΔTm,1.6 °C
CN(C)c1ccc2c(c1)C(=O)N(Cc1ccc(S(N)(=O)=O)cc1)C2=O,"CA2 (Bos taurus, UniProt P00921)",binding,,,,emission maximum,543 nm
COc1ccc(C(OCCN2CCCC(C(=O)O)C2)(c2ccc(OC)cc2)c2ccc(OC)cc2)cc1 (stereo not drawn),"SLC6A1 (Homo sapiens, UniProt P30531)","GABA transport, inhibitor, radioligand uptake",HEK293F transfected,"1.28 nM, 15 min pre, 45 min uptake, room temperature, with: [3H]-GABA 30 nM, GABA 25 µM",higher = more uptake,[3H]-GABA uptake,4040 a.u. and 1120 a.u. and 1330 a.u. and 1430 a.u. and 1490 a.u. and 1240 a.u. and 4300 a.u. and 1200 a.u.
N#CN1CC[C@H](C(=O)Nc2nc3c(s2)CN(C(=O)Cn2cc(CNC(=O)CCCC[C@@H]4SC[C@@H]5NC(=O)N[C@@H]54)nn2)CC3)C1,"Omega-amidase NIT2 (NIT2, Homo sapiens, UniProt Q9NQR4)","probe binding, affinity probe, neutravidin pull-down LC-MS/MS","HEK293T, cell lysate","5 µM, 1 h, mean of three replicates, unit not given",higher = more pulled down,iBAQ abundance,3.32e+08
Nc1ncnc2c1ncn2[C@@H]1O[C@H](CO)[C@@H](O)[C@H]1O,"T1, riboswitch RNA, fused to Pepper aptamer",fluorescence,,"5 µM, negligible activation",,binding,no binding
O=C(O)Cc1cc2c(cc1C(=O)c1ccc(Cl)cc1Cl)OCO2,Gria2,"glutamate-evoked current, whole-cell patch clamp",HEK-293T,concentration not given,,current amplitude,139 ± 9 pA
CCC[C@H](NC(=O)[C@H](CC(=O)O)NC(C)=O)C(=O)N1[C@H](C(=O)N[C@@H](CC(=O)O)C(=O)COC(=O)c2c(C)cccc2C)C[C@@H]2CCCC[C@@H]21,CASP7,"enzyme activity, inhibitor",,,,kinact/KI,940000 M⁻¹ s⁻¹
CCOC(=O)C(CC)(CCCSCCOCCOCCOCCN)NC(=O)c1ccc(C2CC2)c(Cc2ccc(F)cc2)n1 (stereo not drawn),"CNR2 (Homo sapiens, UniProt P34972)","cAMP, agonist",,,,Emax,93%
COC(=O)Cc1cc2c(cc1C(=O)c1cccc(Br)c1)OCO2,Gria2,"glutamate-evoked current, whole-cell patch clamp",HEK-293T,"concentration not given, weighted tau, 1 ms pulse, with: glutamate",,deactivation time constant,2.9 ± 0.1 ms
CCC1=C(C)c2cc3[nH]c(cc4nc(cc5c(CC)c(C)c(cc1n2)n5C)C(C)=C4CCC(=O)O)c(CCC(=O)O)c3C,"T2, riboswitch RNA yjdF aptamer domain (Bacillus subtilis)",fluorescence titration,,,,Kd,3.9 µM
CCCCCC=CC=C1C(=O)C=CC1CC=CCCCC(=O)O (stereo not drawn),"MTHFD1L (Homo sapiens, UniProt Q6UB35)",competitive isoTOP-ABPP,Ramos soluble proteome,"100 µM, 60 min, with: iodoacetamide probe","baseline: DMSO over compound-treated, higher = stronger cysteine blockade",isoTOP-ABPP competition ratio,4.3
COC1CN([C@H]2CC[C@H]([C@@]3(C)Oc4c(Cl)cc(C(=O)NCc5c(SC)cc(C)[nH]c5=O)c(C)c4O3)CC2)C1,,"RNA-seq, refers to: AFAP1L1","human, whole blood","dose not given, 24 h",baseline: pretreatment baseline,log2 fold change,1.72
O=C1c2sc(-c3ccc(N4CCC(CO)CC4)nc3F)nc2CCN1c1cccnc1,"VIPR1 (Homo sapiens, UniProt P32241)","ligand displacement, radioligand",,1 µM,,inhibition,4%
OCC1OC(n2cc(-c3ccc(F)cc3F)nn2)C(O)C(O)C1O (stereo not drawn),"MDM2 (Homo sapiens, UniProt Q00987)","thermal stability, DSF",,30 µM,,ΔTm,2.44 °C
CC(C)Oc1cc(Cl)ccc1CNc1cc(-c2ccccc2)nc2ncnn12,"GPR3 (Homo sapiens, UniProt P46089, L136A)","cAMP level, cAMP GloSensor",,3 µM,higher = more cAMP,cAMP luminescence,35100 a.u. and 24900 a.u. and 30600 a.u. and 36200 a.u.
Cc1ncsc1-c1ccc(C(C)NC(=O)C2CC(O)CN2C(=O)C(NC(=O)CCCCCCCCCCN2CCCC(Nc3ncc(Cl)c(Nc4ccccc4S(=O)(=O)C(C)C)n3)C2)C(C)(C)C)cc1 (stereo not drawn),22Rv1,"RNA-seq, refers to: MAVS mRNA",,concentration not given,baseline: DMSO,log2 fold change,-1.28
C/C(=C/CC[C@@H](C)[C@H]1CC[C@@]2(C)C3=C([C@@H](O[C@@H]4O[C@H](CO)[C@@H](O)[C@H](O)[C@H]4O)C[C@]12C)[C@@]1(C)CCC(=O)C(C)(C)[C@@H]1CC3)C(=O)O,"TAS2R4 (Homo sapiens, UniProt Q9NYW5)","agonist, calcium mobilisation",HEK cells with Galpha16gust44,pH 7.4,,threshold concentration,1 µM
CC(=O)N[C@@H](CC(=O)O)C(=O)N[C@@H](CCC(=O)O)C(=O)N[C@H](C(=O)N[C@@H](CC(=O)O)C(=O)COC(=O)c1c(C)cccc1C)C(C)C,CASP7,"enzyme activity, inhibitor",,,,kinact/KI,549000 M⁻¹ s⁻¹
CC[C@H](C)[C@@H]1NC(=O)[C@H](Cc2ccc(O)cc2)NC(=O)CSC[C@@H](C(N)=O)NC(=O)[C@H](CC(N)=O)NC(=O)[C@H](Cc2c[nH]cn2)NC(=O)[C@H](Cc2ccc(O)cc2)NC(=O)[C@H](CC(=O)O)NC(=O)[C@H](Cc2ccc(O)cc2)NC(=O)[C@H](CC(C)C)NC(=O)[C@H](CCCNC(=N)N)NC1=O,"E3 ubiquitin-protein ligase RAD18, with RAD6 (Homo sapiens, UniProt Q9NS91)",co-immunoprecipitation,"H1299 expressing HA-RAD18, cell lysate",concentration not given,,RAD18-RAD6 interaction,no effect
COc1ccc(NC(=O)c2cc(-c3ccccc3)n(-c3ccccc3)n2)cc1,"Genome polyprotein, NS2B-NS3 protease (dengue virus type 2, UniProt P29990)",reporter gene,HeLa,12.5 µM,,inhibition,18%
Clc1ccc(NN=C(c2ccccc2)c2ccccn2)nc1,"KDM4A (Homo sapiens, UniProt O75164)","demethylase activity, inhibitor, 1H NMR, refers to: H3K9me3 peptide",,double exponential fit component,,rate constant,0.043 min⁻¹

# For quick reference, copied from above:
SMILES,tested on,test,system,setting,how to read,endpoint,result
CC[C@H](C)[C@@H]1NC(=O)[C@H](Cc2ccc(O)cc2)NC(=O)CSC[C@@H](C(N)=O)NC(=O)[C@H](CC(N)=O)NC(=O)[C@H](Cc2c[nH]cn2)NC(=O)[C@H](Cc2ccc(O)cc2)NC(=O)[C@H](CC(=O)O)NC(=O)[C@H](Cc2ccc(O)cc2)NC(=O)[C@H](CC(C)C)NC(=O)[C@H](CCCNC(=N)N)NC1=O,"E3 ubiquitin-protein ligase RAD18, with RAD6 (Homo sapiens, UniProt Q9NS91)",co-immunoprecipitation,"H1299 expressing HA-RAD18, cell lysate",concentration not given,,RAD18-RAD6 interaction,no effect
Clc1ccc(NN=C(c2ccccc2)c2ccccn2)nc1,"KDM4A (Homo sapiens, UniProt O75164)","demethylase activity, inhibitor, 1H NMR, refers to: H3K9me3 peptide",,double exponential fit component,,rate constant,0.043 min⁻¹
N#CN1CC[C@H](C(=O)Nc2nc3c(s2)CN(C(=O)Cn2cc(CNC(=O)CCCC[C@@H]4SC[C@@H]5NC(=O)N[C@@H]54)nn2)CC3)C1,"Omega-amidase NIT2 (NIT2, Homo sapiens, UniProt Q9NQR4)","probe binding, affinity probe, neutravidin pull-down LC-MS/MS","HEK293T, cell lysate","5 µM, 1 h, mean of three replicates, unit not given",higher = more pulled down,iBAQ abundance,3.32e+08
